Results from different studies.
Each numbered part is a random draw from the data of one study; scales do not carry over between parts. Changes are numbered by the printed parent chain.

Sample 1
Target: Transcriptional repressor CTCF (CTCF, Homo sapiens, UniProt P49711, residues 1-727, full length assumed)
Technique: protein-binding microarray
Molecule type: double-stranded DNA, one strand shown
Medium: in vitro
Concentration: not given
Setting: k-mer, scored over probes, only values ≥0.25
Direction: higher = stronger binding
Target sequence (chain): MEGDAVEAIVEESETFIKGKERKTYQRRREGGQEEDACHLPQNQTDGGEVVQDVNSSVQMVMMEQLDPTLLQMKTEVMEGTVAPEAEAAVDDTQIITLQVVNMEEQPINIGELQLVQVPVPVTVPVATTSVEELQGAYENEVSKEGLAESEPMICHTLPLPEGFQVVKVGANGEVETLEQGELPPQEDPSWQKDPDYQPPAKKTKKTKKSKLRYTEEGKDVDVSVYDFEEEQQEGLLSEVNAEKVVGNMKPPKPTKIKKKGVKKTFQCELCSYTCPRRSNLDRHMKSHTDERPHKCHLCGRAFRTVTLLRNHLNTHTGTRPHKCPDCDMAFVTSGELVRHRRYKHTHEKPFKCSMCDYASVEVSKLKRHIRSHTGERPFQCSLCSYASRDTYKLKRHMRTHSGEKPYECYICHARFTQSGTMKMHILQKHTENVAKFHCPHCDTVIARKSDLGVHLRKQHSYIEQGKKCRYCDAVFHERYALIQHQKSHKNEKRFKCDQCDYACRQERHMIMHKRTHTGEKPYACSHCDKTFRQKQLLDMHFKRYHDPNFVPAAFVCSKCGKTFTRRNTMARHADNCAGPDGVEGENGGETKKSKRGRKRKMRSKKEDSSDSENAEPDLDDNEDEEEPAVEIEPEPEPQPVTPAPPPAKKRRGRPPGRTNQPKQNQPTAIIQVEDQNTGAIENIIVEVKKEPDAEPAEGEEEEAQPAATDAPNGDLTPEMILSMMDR
With `AATATTGT` the E-score was 0.281.
`CAAATAAC` has an E-score of 0.327.
For `GATGCGCA`, the E-score was 0.382.
`AAATAATT` has an E-score of 0.306.
With `CATATAAC` the E-score was 0.293.
For `CGTTGCGC`, the E-score was 0.267.
For `GAATTATA`, the E-score was 0.324.
With `AAAAATTA` the E-score was 0.34.

Sample 2
Target: ATP-dependent RNA helicase DDX3X, helicase core (DDX3X, Homo sapiens, UniProt O00571, residues 132-607)
UniProt O00571, sequence (132-607, looked up): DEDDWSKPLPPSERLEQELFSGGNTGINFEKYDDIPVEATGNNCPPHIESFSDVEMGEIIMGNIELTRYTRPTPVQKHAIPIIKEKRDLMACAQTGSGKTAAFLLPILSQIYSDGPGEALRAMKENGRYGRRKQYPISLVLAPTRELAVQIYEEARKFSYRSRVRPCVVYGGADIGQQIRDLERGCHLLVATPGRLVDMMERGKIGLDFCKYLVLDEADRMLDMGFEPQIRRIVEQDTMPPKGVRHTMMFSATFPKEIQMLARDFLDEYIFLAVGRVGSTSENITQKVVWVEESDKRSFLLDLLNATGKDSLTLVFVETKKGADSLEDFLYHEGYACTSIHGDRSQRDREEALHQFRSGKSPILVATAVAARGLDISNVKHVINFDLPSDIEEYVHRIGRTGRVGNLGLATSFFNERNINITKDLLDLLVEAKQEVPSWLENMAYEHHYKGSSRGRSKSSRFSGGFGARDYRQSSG
Technique: RNA Bind-n-Seq
Molecule type: RNA
Medium: in vitro
Concentration: not given
Setting: 4-mer, random 30-nt RNA, single round
Added: RocA, ADP, phosphate
Reference: input library
Direction: higher = stronger binding
`CGAU` gave a 4-mer enrichment of 0.71 fold.
The 4-mer enrichment of `AAAC` is reported as 0.812 fold.
The 4-mer enrichment of `CUAG` is reported as 0.794 fold.
For `UACC`, the 4-mer enrichment was 0.713 fold.
For `UUGG`, the 4-mer enrichment was 1.09 fold.
The 4-mer enrichment of `CAGA` is reported as 0.926 fold.
`AAGU` gave a 4-mer enrichment of 1.14 fold.
`GUAG` gave a 4-mer enrichment of 1.33 fold.

Sample 3
Target: Sal-like protein 4, full length isoform A (SALL4, Homo sapiens, UniProt Q9UJQ4, residues 1-1053)
UniProt Q9UJQ4, sequence (whole entry, looked up): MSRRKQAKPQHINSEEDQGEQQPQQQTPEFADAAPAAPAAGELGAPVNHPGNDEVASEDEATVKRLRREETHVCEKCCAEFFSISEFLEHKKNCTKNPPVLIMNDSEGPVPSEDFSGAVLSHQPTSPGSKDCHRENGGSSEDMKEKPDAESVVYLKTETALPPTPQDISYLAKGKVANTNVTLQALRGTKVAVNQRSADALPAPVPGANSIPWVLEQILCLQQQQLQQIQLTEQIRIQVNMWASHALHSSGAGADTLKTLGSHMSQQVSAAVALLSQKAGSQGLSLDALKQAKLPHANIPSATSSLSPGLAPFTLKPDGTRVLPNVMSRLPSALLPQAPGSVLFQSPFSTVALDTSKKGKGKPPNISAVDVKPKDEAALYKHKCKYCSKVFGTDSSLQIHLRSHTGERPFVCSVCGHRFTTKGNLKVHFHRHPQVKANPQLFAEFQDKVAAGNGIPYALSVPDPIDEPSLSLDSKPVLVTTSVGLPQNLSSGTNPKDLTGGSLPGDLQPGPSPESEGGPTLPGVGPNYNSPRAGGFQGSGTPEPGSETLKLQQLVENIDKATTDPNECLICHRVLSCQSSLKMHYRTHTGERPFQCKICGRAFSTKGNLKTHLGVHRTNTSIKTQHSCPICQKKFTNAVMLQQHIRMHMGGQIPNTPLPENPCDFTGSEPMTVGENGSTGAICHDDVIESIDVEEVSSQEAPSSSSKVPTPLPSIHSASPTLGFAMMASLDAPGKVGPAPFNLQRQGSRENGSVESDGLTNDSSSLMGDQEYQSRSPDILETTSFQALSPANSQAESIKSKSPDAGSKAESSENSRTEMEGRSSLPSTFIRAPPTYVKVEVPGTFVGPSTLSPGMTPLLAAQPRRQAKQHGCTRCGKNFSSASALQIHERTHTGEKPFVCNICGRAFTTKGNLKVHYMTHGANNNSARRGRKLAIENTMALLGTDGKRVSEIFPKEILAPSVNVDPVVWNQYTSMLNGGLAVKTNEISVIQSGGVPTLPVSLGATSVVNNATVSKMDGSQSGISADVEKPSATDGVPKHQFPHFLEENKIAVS
Technique: universal PBM
Molecule type: double-stranded DNA, one strand shown
Medium: in vitro
Concentration: 600 nM
Setting: 8-mer, flanks averaged, mean of replicates
Direction: higher = stronger binding
`CCGAGAGA` gave an E-score of -0.0953.
With `CCAGACGC` the E-score was -0.284.
`CCAAGAAC` has an E-score of -0.162.
`CGAGGAAC` has an E-score of -0.185.
`GGCGACAA` has an E-score of -0.183.
`AATTCGGC` has an E-score of -0.0981.
The E-score of `AGACCTCT` is reported as -0.167.
For `AACAGTTA`, the E-score was 0.2.

Single results of other studies
Starting sequence: viral docking peptide; YKVKRRLVFGADD; partner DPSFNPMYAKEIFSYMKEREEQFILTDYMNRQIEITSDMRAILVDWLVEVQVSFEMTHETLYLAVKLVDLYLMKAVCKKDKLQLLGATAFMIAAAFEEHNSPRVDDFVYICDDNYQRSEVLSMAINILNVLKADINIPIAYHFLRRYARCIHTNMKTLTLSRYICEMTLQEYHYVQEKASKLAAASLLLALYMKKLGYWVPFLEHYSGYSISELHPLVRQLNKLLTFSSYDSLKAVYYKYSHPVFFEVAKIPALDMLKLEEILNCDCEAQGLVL
`YKVKRRLVFGAQD [D12Q]`: “normalised enrichment score” 1.73 (CCNB3, cyclin fold, Cln2 fusion (human); yeast growth competition, sequencing; yeast; strong parent motif; reference: not given, higher = stronger binding).
